Published values from different studies.
Compare with care: the assays were run in different laboratories. “And” joins repeats or separate records; there may be more than shown. Numbers after ± are the reported error.

COCC1=N[C@]23c4c(OC)cc(OC)cc4O[C@@]2(c2ccc(OC)cc2)[C@H](c2ccccc2)[C@@H](C(=O)N(C)OC)[C@]3(O)N1
inhibition (SARS-CoV; A549-ACE2; concentration not given, 48 h): ~50%

CC(C)N1CCC(NC(=O)c2ccccc2C(F)(F)F)CC1
inhibition (Influenza A virus; viral entry; A549, H5N1 HA virus-like particles; 12.5 µM, A/Goose/Qinghai/59/05 HA): 37%

CCC(CC)COC(=O)[C@H](C)N[P@](=O)(OC[C@H]1O[C@@](C#N)(c2ccc3c(N)ncnn23)[C@H](O)[C@@H]1O)Oc1ccccc1
inhibition (Severe acute respiratory syndrome coronavirus 2; viral replication, inhibitor, qPCR; Vero C1008; 10 µM): 97.6%

COc1ccc(C[C@@H]2c3cc(Oc4cc(C[C@@H]5c6cc(O)c(OC)cc6CCN5C)ccc4O)c(OC)cc3CCN2C)cc1
inhibition (Severe acute respiratory syndrome coronavirus 2; cytopathic effect; Vero C1008; 25 µM): 0%

Cc1cc(NC(=O)c2cc3c(=O)n4cccc(C)c4nc3n2C)ccc1Br
inhibition (Severe acute respiratory syndrome coronavirus 2; viral replication, inhibitor, qPCR; Vero C1008; 1 µM): 92.7%

COc1ccc(C2COc3c(ccc(O)c3OC)C2)c(OC)c1O (centres unmarked)
inhibition (Rickettsia prowazekii; Vero cells; 6 µM, 72 h): > 99%

CC(C)=CCc1c(O)ccc(C(=O)/C=C/c2ccc(O)cc2)c1O
inhibition (Severe acute respiratory syndrome coronavirus 2; cytopathic effect, inhibitor; Vero C1008; 25 µM): 0%

CC(=O)O[C@]1(C(C)=O)CC[C@H]2[C@@H]3C=C(Cl)C4=CC(=O)[C@@H]5C[C@@H]5[C@]4(C)[C@H]3CC[C@@]21C
inhibition (Enterovirus C; viral replication, item: Gaussia luciferase; HeLa; 10 µM, 48 h): 85.1%

O=C(/C=C/c1ccc(O)c(O)c1)O[C@@H]1C[C@@](O)(C(=O)O)C[C@@H](O)[C@@H]1O
inhibition (Pseudovirus, SARS-CoV-2 spike; viral entry; concentration not given): 46.6%

Cn1cc(CN2CCCC(COc3ccccc3C(=O)N3CCCCC3)C2)c2ccccc21 (centres unmarked)
efficacy (SARS-CoV-2; cytopathic effect; USA_WA1/2020; retest, 8-point, duplicates): 9.96%

O=C(O[C@@H]1Cc2c(O)cc(O)cc2O[C@@H]1c1cc(O)c(O)c(O)c1)c1cc(O)c(O)c(O)c1
inhibition (Severe acute respiratory syndrome coronavirus 2; cytopathic effect, inhibitor; Vero C1008; 0.7812 µM): 0%

C=C(NC(=O)C(=C)NC(=O)c1csc(C2=N[C@@H]3c4csc(n4)[C@H]4NC(=O)c5csc(n5)[C@H]([C@](C)(O)[C@@H](C)O)NC(=O)[C@H]5CSC(=N5)/C(=C/C)NC(=O)[C@H]([C@@H](C)O)NC(=O)c5csc(n5)[C@]3(CC2)NC(=O)[C@H](C)NC(=O)C(=C)NC(=O)[C@H](C)NC(=O)[C@H]([C@@H](C)CC)N[C@@H]2C=Cc3c([C@H](C)O)cc(nc3[C@H]2O)C(=O)O[C@@H]4C)n1)C(N)=O
inhibition (Enterovirus C; viral replication, item: Gaussia luciferase; HeLa; 10 µM, 48 h): 92.8%

CC(C)(C)[C@H](NC(=O)C(F)(F)F)C(=O)N1C[C@H]2[C@@H]([C@H]1C(=O)N[C@H](C#N)C[C@@H]1CCNC1=O)C2(C)C
inhibition (SARS-CoV-2; viral replication; Vero E6; 10 µM): 118% and 128%

Teicoplanin
inhibition (SARS-CoV-2 pseudovirus; viral entry; 10 µM): 42.7 ± 5.31%

CN(CC1CCOC2(CCN(C(=O)C3(c4ccccc4)CCCC3)CC2)C1)C(=O)c1ccccn1 (centres unmarked)
inhibition (Venezuelan equine encephalitis virus; viral replication; 40 µM): 60%

Cc1cccn2c(=O)c3cc(C(=O)Nc4ccc(N(C)C)cc4)n(C)c3nc12
inhibition (Severe acute respiratory syndrome coronavirus 2; viral replication, inhibitor, qPCR; Vero C1008; 1 µM): 87.6%

CNC(=O)[C@@H](NC(=O)[C@H](CC(C)C)[C@H](O)C(=O)NO)C(C)(C)C
remaining fibrinogen Aα chain (human fibrinogen; SDS-PAGE; Daboia russelii; concentration not given, unit not given, with: PB venom; relative to: untreated fibrinogen): 0.803

CC(C)(C)C(O)(CCc1ccc(Cl)cc1)Cn1cncn1 (centres unmarked)
inhibition (Xanthomonas oryzae pv. oryzae; bacterial growth; 128 µg/mL): 100%

CS(=O)(=O)NCC1CCOC2(CCN(C(=O)Cc3ccccc3)CC2)C1 (centres unmarked)
inhibition (Venezuelan equine encephalitis virus; viral replication; 40 µM): 20%

O=C(NCc1ccccc1Cl)C1CCCN(Cc2cccc(-c3ccc(F)cc3F)c2)C1 (centres unmarked)
AC50 (SARS-CoV-2; cytopathic effect, cell-based CPE; USA_WA1/2020; round 1, 5-point dilution): 12.6 µM

CC[C@H](C)[C@H](NC(=O)[C@H](CC(C)C)NC(=O)[C@H](Cc1c[nH]c2ccccc12)NC(=O)[C@H](CCC(N)=O)NC(=O)[C@@H](NC(=O)[C@H](Cc1ccccc1)NC(=O)[C@H](C)NC(=O)[C@H](CCCCNC(=O)COCCOCCNC(=O)COCCOCCNC(=O)CC[C@H](NC(=O)CCCCCCCCCCCCCCCCCCC(=O)O)C(=O)O)NC(=O)[C@H](CCC(N)=O)NC(=O)[C@H](C)NC(=O)[C@@H](NC(=O)[C@H](CCCCN)NC(=O)[C@H](CC(=O)O)NC(=O)[C@H](CC(C)C)NC(=O)C(C)(C)NC(=O)[C@@H](NC(=O)[C@H](CO)NC(=O)[C@H](Cc1ccc(O)cc1)NC(=O)[C@H](CC(=O)O)NC(=O)[C@H](CO)NC(=O)[C@@H](NC(=O)[C@H](Cc1ccccc1)NC(=O)[C@@H](NC(=O)CNC(=O)[C@H](CCC(=O)O)NC(=O)C(C)(C)NC(=O)[C@@H](N)Cc1ccc(O)cc1)[C@@H](C)O)[C@@H](C)O)[C@@H](C)CC)[C@@H](C)CC)C(C)C)C(=O)N[C@@H](C)C(=O)NCC(=O)NCC(=O)N1CCC[C@H]1C(=O)N[C@@H](CO)C(=O)N[C@@H](CO)C(=O)NCC(=O)N[C@@H](C)C(=O)N1CCC[C@H]1C(=O)N1CCC[C@H]1C(=O)N1CCC[C@H]1C(=O)N[C@@H](CO)C(N)=O
subjects with treatment-emergent ADA (item: anti-drug antibodies; healthy subjects; 4.5 mg, postbaseline, multiple ascending dose): 0%

O=C(Nc1ccccc1F)c1cc2c(=O)n3ccccc3nc2n1Cc1ccccc1
inhibition (Severe acute respiratory syndrome coronavirus 2; viral replication, inhibitor, qPCR; Vero C1008; 10 µM): 95.9%

C=C[C@@](C)(/C=C/c1ccc(O)cc1)CCC=C(C)C
inhibition (Severe acute respiratory syndrome coronavirus 2; cytopathic effect, inhibitor; Vero C1008; 50 µM): 0%

COc1ccc(C2(C(=O)N3CCC4(CC3)CC(CNS(C)(=O)=O)CCO4)CCCC2)cc1 (centres unmarked)
inhibition (Venezuelan equine encephalitis virus; viral replication; 40 µM): < 10%

Cn1cnc(Cn2c(=O)[nH]/c(=N\c3cc4cn(C)nc4cc3Cl)n(Cc3cc(F)c(F)cc3F)c2=O)n1
inhibition (Severe acute respiratory syndrome coronavirus 2; viral replication; Vero C1008; 17.15 nM): 0%

CC1(C(=O)N2CCC3(CC2)CC(CNS(C)(=O)=O)CCO3)CCCC1 (centres unmarked)
inhibition (Venezuelan equine encephalitis virus; viral replication; 40 µM): 20%

Nc1ncnc2c([C@@H]3N[C@H](CO)[C@@H](O)[C@H]3O)c[nH]c12
inhibition (Marburg virus; viral replication; HeLa, Angola; 25 µM): 93.8%

CC(C)NC(=O)NCC1CCOC2(CCN(C(=O)C3(c4ccccc4)CCCC3)CC2)C1 (centres unmarked)
inhibition (Venezuelan equine encephalitis virus; viral replication; 40 µM): 60%

NC(=O)c1ncn([C@@H]2O[C@H](CO)[C@@H](O)[C@H]2O)n1
inhibition (Enterovirus C; viral replication, item: Gaussia luciferase; HeLa; 10 µM, 48 h): 60.3%

O=C(N1CCC2(CC1)CC(CNS(=O)(=O)c1ccccc1)CCO2)C1(c2ccccc2)CCCC1 (centres unmarked)
inhibition (Venezuelan equine encephalitis virus; viral replication; 40 µM): 90%

CCOc1ccc(Cc2nccc3cc(OCC)c(OCC)cc23)cc1OCC
inhibition (Enterovirus C; viral replication, item: Gaussia luciferase; HeLa; 10 µM, 48 h): 82.8%

O=C(N1CCC2(CC1)CC(CNS(=O)(=O)C1CC1)CCO2)C1(c2ccccc2)CCCC1 (centres unmarked)
inhibition (Venezuelan equine encephalitis virus; viral replication; 40 µM): 50%

Cn1c(C(=O)Nc2ccc(Cl)cc2)cc2c(=O)n3ccccc3nc21
inhibition (Severe acute respiratory syndrome coronavirus 2; viral replication, inhibitor, qPCR; Vero C1008; 1 µM): 88.2%

CS(=O)(=O)NCC1CCOC2(CCN(C(=O)C3(c4ccccc4)CCC3)CC2)C1 (centres unmarked)
inhibition (Venezuelan equine encephalitis virus; viral replication; 40 µM): 20%

Cn1cnc(Cn2c(=O)[nH]/c(=N\c3cc4cn(C)nc4cc3Cl)n(Cc3cc(F)c(F)cc3F)c2=O)n1
patients with adverse event (human, moderate renal impairment; oral, 375 mg, treatment-related decreased GFR, Mild severity): 0%

Excerpt of the above:
Teicoplanin
inhibition (SARS-CoV-2 pseudovirus; viral entry; 10 µM): 42.7 ± 5.31%

CC(C)(C)[C@H](NC(=O)C(F)(F)F)C(=O)N1C[C@H]2[C@@H]([C@H]1C(=O)N[C@H](C#N)C[C@@H]1CCNC1=O)C2(C)C
inhibition (SARS-CoV-2; viral replication; Vero E6; 10 µM): 118% and 128%

Nc1ncnc2c([C@@H]3N[C@H](CO)[C@@H](O)[C@H]3O)c[nH]c12
inhibition (Marburg virus; viral replication; HeLa, Angola; 25 µM): 93.8%

CS(=O)(=O)NCC1CCOC2(CCN(C(=O)Cc3ccccc3)CC2)C1 (centres unmarked)
inhibition (Venezuelan equine encephalitis virus; viral replication; 40 µM): 20%

CCC(CC)COC(=O)[C@H](C)N[P@](=O)(OC[C@H]1O[C@@](C#N)(c2ccc3c(N)ncnn23)[C@H](O)[C@@H]1O)Oc1ccccc1
inhibition (Severe acute respiratory syndrome coronavirus 2; viral replication, inhibitor, qPCR; Vero C1008; 10 µM): 97.6%
